# Published values of several laboratories.
# A part holds a random share of what one study measured. Changes are numbered by the printed parent chain.

# Sample 1 — technique: RNA Bind-n-Seq; molecule type: RNA; sample: in vitro; tested at: 20 nM; setting: 6-mer, flanks averaged, single round; added: 150 mM KCl; reference: input library; direction: higher = stronger binding
# Target: TAR DNA-binding protein 43, full length, His tag (TARDBP, Homo sapiens, UniProt Q13148, residues 1-414)
Sequence,6-mer enrichment (R)
GAAUAC,0.662
UGAGCC,0.81
GAUAGA,0.909
GCGUAG,1.45
AACGAU,0.597
UGUUGG,1.31
AGAAGG,1.74
CCCAGU,0.675
GGGUAU,1.83
GCCCGG,1.27
GAAACA,0.699
CGUGCU,0.755
UUCUAA,0.602
UCUGAG,0.842
AGCGAG,1.6
GGGAUU,1.63
UGCCUG,0.832
UGGAAA,0.867
UGCUUG,0.875
GAUUAA,0.629
CUAGCA,0.643
ACGGCG,1.62
UGGCGU,1.32

# Sample 2 — technique: protein binding microarray; molecule type: double-stranded DNA, one strand shown; sample: in vitro; tested at: not given; reference: not given; direction: higher = stronger binding
# Target: Histone acetyltransferase KAT6A, winged helix 1, GST fusion (KAT6A, Homo sapiens, UniProt Q92794, residues 1-85)
# Setting: 8-mer, flanks averaged, mean of 2 arrays, mostly near background
# Construct (chain): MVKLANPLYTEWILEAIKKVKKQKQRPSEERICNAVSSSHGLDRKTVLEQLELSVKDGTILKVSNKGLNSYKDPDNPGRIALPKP
Sequence,E-score
ATTACATG,0.0649
CTAGAGTC,-0.0283
ATCTGACC,-0.0787
TATTTTCA,-0.0201
AAACATGG,-0.0685
AGTGACAA,-0.271
AGACGGCC,0.376
AACACAAC,-0.0672
GCCGTCTA,0.323
CCTATCGC,0.175
ACTCTTGC,-0.214
GGTCGGAC,0.151
AGAACAAT,-0.21
CCAGAGGG,-0.206
ACGCCGCG,0.409
AATGAGCG,0.0325
ATATAAGA,-0.167
AGCCGTTA,0.28
AAGATCAG,-0.0373
ATGCAGAG,-0.211
ACTAGCCA,-0.201
GACCCCCC,0.0388
CCCGCTCG,0.379
AGGCGCCA,0.164
ATTTAGCA,-0.139

# Sample 3 — target: CCNE2, cyclin fold, Cln2 fusion (human); technique: yeast growth competition, sequencing; sample: yeast; setting: weak parent motif; reference: not given; direction: higher = stronger binding
# Starting sequence: ORC1 docking peptide (human); PRARKRLELGNLG; partner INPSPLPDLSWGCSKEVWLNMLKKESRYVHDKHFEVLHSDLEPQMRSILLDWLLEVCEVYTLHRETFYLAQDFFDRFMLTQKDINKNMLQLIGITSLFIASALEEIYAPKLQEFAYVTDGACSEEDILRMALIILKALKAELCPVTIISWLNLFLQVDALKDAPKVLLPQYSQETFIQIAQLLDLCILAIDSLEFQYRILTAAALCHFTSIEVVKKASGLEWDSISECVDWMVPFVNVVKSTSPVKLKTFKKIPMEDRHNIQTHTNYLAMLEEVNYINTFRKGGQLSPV
Substitution,normalised enrichment score
PRARKRLETGNLG [L9T],-0.219
PRARTRLELGNLG [K5T],-0.0327
HRARKRLELGNLG [P1H],0.398
PKARKRLELGNLG [R2K],0.404
PRARKRKELGNLG [L7K],1.2
PRARKRLEDGNLG [L9D],0.513
PRQRKRLELGNLG [A3Q],1.63
PRACKRLELGNLG [R4C],0.202
PRVRKRLELGNLG [A3V],-0.0795
PRARKRVELGNLG [L7V],-0.648
CRARKRLELGNLG [P1C],1.29
PRARKRLELGNLD [G13D],0.375
PRARKRLELGNVG [L12V],0.571
PYARKRLELGNLG [R2Y],-0.21
PRARKSLELGNLG [R6S],0.281
PRARKRLEQGNLG [L9Q],1.15
PRARKRLHLGNLG [E8H],0.138
PRARKRLELGNLR [G13R],0.727
PRAFKRLELGNLG [R4F],1.14

# Sample 4 — technique: RNA Bind-n-Seq; molecule type: RNA; sample: in vitro; tested at: 100 nM; reference: input RNA pool; direction: higher = stronger binding
# Target: RING finger protein unkempt homolog, zinc fingers 1-6, SBP tag (UNK, Homo sapiens, UniProt Q9C0B0, residues 30-357)
# Chain of UniProt Q9C0B0 (30-357, looked up): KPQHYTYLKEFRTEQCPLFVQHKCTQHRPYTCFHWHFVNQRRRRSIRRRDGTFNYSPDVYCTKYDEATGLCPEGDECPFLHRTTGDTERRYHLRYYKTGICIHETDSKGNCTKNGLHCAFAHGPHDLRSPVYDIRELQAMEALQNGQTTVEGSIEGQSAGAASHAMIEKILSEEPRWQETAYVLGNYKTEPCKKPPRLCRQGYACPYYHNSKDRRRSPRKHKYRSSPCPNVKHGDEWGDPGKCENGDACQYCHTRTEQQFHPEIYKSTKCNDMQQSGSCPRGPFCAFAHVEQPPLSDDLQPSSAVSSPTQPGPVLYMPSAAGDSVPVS
# Setting: RNA with constant flanks, vertebrate orthologous sites, ends assumed
# Shared flanks, not repeated: GGGAGUUCUACAGUCCGACGAUC … CAACAGAGGAUUGAGCAUCA
Sequence,bound/input enrichment [ratio]
CUGUUGUUAAGCACUGUGUUCCAGACCGUGUCUGACUUUAGUGUAACCUAGGAGAUUUUAUAGUUUUAUUUUAAUGAAGCCCUGAUUGGUGCAGAGCAGCGGGAAAAGCAGUGUCUUUCA,2.91
UUUUAUUGAUCAGGUCUGUAAAUGUGUACUAAAAAAAUCAGAGUUUAUUUAUAAACAAGAGAGUUUAUUUAAAGUGAAGGUCUUUUCUCAUCAAUAUUGUGGUAUACAUUAAUUCCAUUU,0.263
AGCAAGCCAAGGACUCAGGACUGGUUUUACAAAUAUGCCAAGUAGAUAUGGAACUAACAAUAGAAUUGGACAACCAAGACCAUGAUGUACUGUACUUUAAUUUAUUUUUAUGAGGAAUAU,0.868
ACUCCCUCAACUUCAGUUUUUCAGGUUGUAGCUGAUCCAUCUUUCUUCUUCCCCCUCCUCUCACUGUUCCUUUCCUUUCCUUUCUGUCUGCCCAACUUCAGACACAUGAGUUCUUCCCCU,1.05
GCAUUUGCCGCUAUCACCAAAAGCAAACUUCCACUUUUCAAAUUUCAUUCCGAGCCGUUUUAGUGUUUCCUAUUCCCUACCCUUCCCAUGACUUUCUCUGAUGAAAUAUACUGUUCUCCU,1.47
CUUUGGAAGACUGUAAAAACCUUUUGUUCAUAUUGGUAAUUAUGGACCGUGCCACCAAAACUGAGUUUGUGGCUUAUUACAUUAAGAUAAUUUUUGUUGGUUAUUUCAUAAGUACUUGCU,0.147
GCCUACAAUAAUGAAAACCUACCAGGAAUUUUUUAAUUUUUCAUUUCCCUUAGGCAUACUUAGUCUUUUUUUCCCCCAGGCAGAUCAUUCUGAGUGUGCGAGUGUGUGUGCACAUGUUAC,1.26
GCCUCCAACAGGCAAAUUCAGGGAGAGGUAGGUUUCAGGGAAUAUAAAUUUACUUAAUAUUAGUGGUCUUUAAGUAUAAACUUGAUGUAAUUGGUUUGGGAGGGGCAGUGAUAAUGACUU,1.23
GCAUAUGCCGCUAUCACCAAAAGCAAACUACCACUUUUCAAAUUUCAUUCAGAGCCAUUUUAGUGUUUCCUAUUCCCUACCUUUCCCACUAUUUUCAAUGAUGAAAUAUCCUUUUUCCUU,2.14
UCCCAGCACUUUGGUGAAAAGUGUGGAUUGGUUGCUUGUAUUUUCCUUAUUCUUUCUAGUUAGUUUUAUUAUGUAUGCUACUAUUCGAACUGAAAGUAUUCGAUGGCUAAUUCCAGGACA,0.611
AUCCCUCAGUGACAGUAUGCCAUCUGUAGCAGACUCCCACUCUAGUCACUUUUCUGAAUUUAGUUGUUCUGACCUAGAAAGCAUGAAAACGUCUUGUAGCCAUGGUUCCAAUGACCAUCA,2.76

# Sample 5 — technique: RNA Bind-n-Seq; molecule type: RNA; sample: in vitro; tested at: 365 nM; reference: no-protein control; direction: higher = stronger binding
# Target: RNA binding protein fox-1 homolog 2, RRM domain, GST-SBP tag (RBFOX2, Homo sapiens, UniProt O43251-10, residues 100-194)
# Setting: natural RNA segment, single round, ends assumed
# Shared flanks, not repeated: GGGAGUUCUACAGUCCGACGAUC … UGGAAUUCUCGGGUGCCAA
Sequence,RBNS enrichment (R)
GCUUGUAGAGGGACAUUCCCUCCUUCCCAGUUUUAACUGGUGGACCACAGUGGGGGGAAAAACAUUCAAGCGAUAUAAAGACACUUGGGCUCUUUGCAGAUGCCUAUACU,0.593
UGAACACGGCCAAAAUCCAUAAAGAUUAUAAAAGCAAACUAAGUUGUGAAGCUAUAGUACAUGUAGGCAUUUAGUUAAGUAUAGCAAUUCAAACUGACCUGCAUCCAUCC,1.32
GCACCAGCACCUUAGAAACUAUUGGCAGAAGAGGGCACAUGAGCUGCGGGAGAGUGUAUACACUGAUCAGUACCUCCCUUGAGGCUGAGCUUCCUCGCAGACCCACAGAA,1.19
CAGUGCAUUGUCCCGUGGAGGUGUGACACGGGAGACACACGUGUGGAUCAUGUGAUCAUUGUGAACACCUCGUGAGCUUUAAAAUAAAGUCCACCCUGUGGUGUCAUUUC,0.49
AAUAACUUCUGUGGGAGCUCAUCCCCCAAUCUUCGGUACUCUGCUUCCACAGUUGGAAAGUGGAACUACUUGUUGUUGAUAUCCCACAGCUAUCAGGUGCUAUGUAACUC,0.373
GUAACUUUAUUUAUUUAAAAAAAAGAAACACAAUUAGUUACUGUUAAACUGAUAAAGGGUGUUUAUUUUUACUUUUAGAAUUGGUCCUAUGAAGAAGUAGAAAGUGAGUC,0.926
CUCUGUACAGGUGCCCUGAGCCUGGGUGCUCACUGUGGCGGUCCCCGUCCUGGCUAUGAAACCUUGUGAGCAGAAGGCAAGAGCGGCAAGAUGAGUUUUGAGCGUUGUAU,0.455
AGUUUUGCUAGAAGCUGGCGCUUCCUCCCCAGGGCAGGGGCCCCACAGCACCUCAGACCCCAAGUGUGUCUGGAGUUCCCUGUCGGCCAGGGAGAGGACACCAGCACCUG,0.441
UUAGCCCAGUGUGUCAGCGUCCAUUGUUACUCAUCACUGCAUUGUUGGGCAAUUAGUUUGUAAUUUGUUUUAGGCAAUCACUAUAAAUUAUAAUUAUGGACACUGCAUCA,1.69
UACCUGAAUGGAGAAUACAUCUUGUUUCUGAGUUUCAACACUAGCAUUUUUGGCUUACUCAUGGACAAAGUUCUGUAUAUAGUAUAAAGUCAUUAACAAGAAACAGGAUA,0.625
UGCUCCCGCUAUAUCCCAGGCCUCACCCUUUUCUGAUCAUUAUCAGAAAGAAUCCCCUGAACUUUUCAAGGGGUUUAUAUGGUAGCACCAAAUGGAGAAUGAGCAUCUAA,0.612
CUAUGCAAACACAGGCCCUGACCUCCCCAUGUCUGUUCCUGGUCCUCACAGCCCGACACGCCCUGCUGAGGCAGACGAAUGACAUUAAGUUCUGAAGCAGAGUGGAGAUA,2.3

# For quick reference, copied from above (sample 1):
Sequence,6-mer enrichment (R)
AGCGAG,1.6
GGGAUU,1.63
GAUAGA,0.909
UGCUUG,0.875
GCCCGG,1.27
GAAUAC,0.662
GCGUAG,1.45
